Assay results collected from several papers.
Numbered parts are unrelated; each lists some results of a single study. Several values in a cell are separate wells, animals, samples, runs or records.
UniProt Q9NYV4, sequence (whole entry, looked up): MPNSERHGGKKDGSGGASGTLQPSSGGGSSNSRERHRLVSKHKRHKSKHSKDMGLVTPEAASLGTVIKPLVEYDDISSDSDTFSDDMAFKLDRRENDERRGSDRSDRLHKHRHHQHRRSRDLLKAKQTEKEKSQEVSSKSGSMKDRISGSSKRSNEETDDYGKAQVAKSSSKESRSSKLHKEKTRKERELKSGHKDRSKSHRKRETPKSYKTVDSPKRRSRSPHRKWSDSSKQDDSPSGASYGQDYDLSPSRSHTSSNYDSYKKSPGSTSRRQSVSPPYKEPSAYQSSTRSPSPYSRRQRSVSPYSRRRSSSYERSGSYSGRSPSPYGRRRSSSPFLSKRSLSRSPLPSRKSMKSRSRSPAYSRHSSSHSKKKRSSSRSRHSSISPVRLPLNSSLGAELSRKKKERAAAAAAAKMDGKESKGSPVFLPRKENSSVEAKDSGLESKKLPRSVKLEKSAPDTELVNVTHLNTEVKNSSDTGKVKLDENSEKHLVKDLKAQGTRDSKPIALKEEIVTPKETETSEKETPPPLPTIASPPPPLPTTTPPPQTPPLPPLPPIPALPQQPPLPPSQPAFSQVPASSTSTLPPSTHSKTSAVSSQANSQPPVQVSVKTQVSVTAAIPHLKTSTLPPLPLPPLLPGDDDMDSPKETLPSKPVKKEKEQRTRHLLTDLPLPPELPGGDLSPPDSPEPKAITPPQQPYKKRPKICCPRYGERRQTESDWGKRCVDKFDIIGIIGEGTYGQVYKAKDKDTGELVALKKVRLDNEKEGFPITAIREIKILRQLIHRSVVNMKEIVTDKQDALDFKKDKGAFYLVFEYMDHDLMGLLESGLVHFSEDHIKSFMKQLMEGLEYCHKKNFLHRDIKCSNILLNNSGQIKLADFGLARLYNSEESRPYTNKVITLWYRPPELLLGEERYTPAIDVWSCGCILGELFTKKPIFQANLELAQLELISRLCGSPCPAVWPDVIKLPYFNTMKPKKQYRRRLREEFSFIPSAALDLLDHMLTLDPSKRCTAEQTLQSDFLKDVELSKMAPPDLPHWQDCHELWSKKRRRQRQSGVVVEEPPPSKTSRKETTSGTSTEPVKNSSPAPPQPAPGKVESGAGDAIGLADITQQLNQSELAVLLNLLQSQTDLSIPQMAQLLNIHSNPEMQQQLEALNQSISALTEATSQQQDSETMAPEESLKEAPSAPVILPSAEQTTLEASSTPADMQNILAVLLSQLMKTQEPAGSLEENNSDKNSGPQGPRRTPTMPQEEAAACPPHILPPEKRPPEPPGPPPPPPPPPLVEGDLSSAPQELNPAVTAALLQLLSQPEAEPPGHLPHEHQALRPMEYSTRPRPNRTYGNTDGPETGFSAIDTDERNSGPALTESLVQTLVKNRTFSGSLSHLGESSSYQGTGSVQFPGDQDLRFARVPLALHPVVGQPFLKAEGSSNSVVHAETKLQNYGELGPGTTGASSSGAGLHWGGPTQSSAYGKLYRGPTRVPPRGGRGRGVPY

Series 1 — time: 6 days
Compound: Cc1ncsc1-c1ccc(C(CO)NC(=O)C2CC(O)CN2C(=O)C(C(C)C)n2cc(-c3ccc(COc4c(-c5c(C)c(F)cc6[nH]ncc56)c(C5CC5)cc5c(N6CC7CC6CN7)nc(OC6CCOCC6)nc45)cc3)nn2)cc1 (stereo not shown)
cell line	test	conditions	scale	viability
A-375	cell growth or viability, ATP luminescence	3 µM		85.5% and 93.3% and 83.2% and 94.9%
HCT-116	cell growth or viability, ATP luminescence	30 nM		105% and 85.9% and 93.5% and 96.5%
LCLC-97TM1	cell growth or viability, ATP luminescence	3 nM		94.8% and 107% and 105% and 113%
ASPC1	cell growth or viability, ATP luminescence	10 nM		64% and 69.5% and 62.1% and 77%
GP2d	cell growth or viability, ATP luminescence	10 µM		23.1% and 15.9% and 14.5% and 18.6%
AsPC-1	CellTiter-Glo	300 pM	baseline: DMSO	94.1% and 105% and 93.3%

Series 2 — effect on: thermal unfolding; method: differential scanning fluorimetry; concentration: 5.5 µM; reading: higher = more unfolded
SMILES: C[C@@H]1CN(c2ccc(-c3cc(C(=O)NCCOCCOCCOCCOCCNC(=O)/C=C/c4[nH]cc(C(=O)N[C@@H](CC(N)=O)c5ccc(F)c(Cl)c5)c4-c4ccc(Cl)cc4F)ccc3F)cc2NC(=O)c2c[nH]c(=O)cc2C(F)(F)F)C[C@H](C)N1C
DCAF1: DDB1- and CUL4-associated factor 1 (DCAF1, Homo sapiens, UniProt Q9Y4B6)
UniProt Q9Y4B6, sequence (whole entry, looked up): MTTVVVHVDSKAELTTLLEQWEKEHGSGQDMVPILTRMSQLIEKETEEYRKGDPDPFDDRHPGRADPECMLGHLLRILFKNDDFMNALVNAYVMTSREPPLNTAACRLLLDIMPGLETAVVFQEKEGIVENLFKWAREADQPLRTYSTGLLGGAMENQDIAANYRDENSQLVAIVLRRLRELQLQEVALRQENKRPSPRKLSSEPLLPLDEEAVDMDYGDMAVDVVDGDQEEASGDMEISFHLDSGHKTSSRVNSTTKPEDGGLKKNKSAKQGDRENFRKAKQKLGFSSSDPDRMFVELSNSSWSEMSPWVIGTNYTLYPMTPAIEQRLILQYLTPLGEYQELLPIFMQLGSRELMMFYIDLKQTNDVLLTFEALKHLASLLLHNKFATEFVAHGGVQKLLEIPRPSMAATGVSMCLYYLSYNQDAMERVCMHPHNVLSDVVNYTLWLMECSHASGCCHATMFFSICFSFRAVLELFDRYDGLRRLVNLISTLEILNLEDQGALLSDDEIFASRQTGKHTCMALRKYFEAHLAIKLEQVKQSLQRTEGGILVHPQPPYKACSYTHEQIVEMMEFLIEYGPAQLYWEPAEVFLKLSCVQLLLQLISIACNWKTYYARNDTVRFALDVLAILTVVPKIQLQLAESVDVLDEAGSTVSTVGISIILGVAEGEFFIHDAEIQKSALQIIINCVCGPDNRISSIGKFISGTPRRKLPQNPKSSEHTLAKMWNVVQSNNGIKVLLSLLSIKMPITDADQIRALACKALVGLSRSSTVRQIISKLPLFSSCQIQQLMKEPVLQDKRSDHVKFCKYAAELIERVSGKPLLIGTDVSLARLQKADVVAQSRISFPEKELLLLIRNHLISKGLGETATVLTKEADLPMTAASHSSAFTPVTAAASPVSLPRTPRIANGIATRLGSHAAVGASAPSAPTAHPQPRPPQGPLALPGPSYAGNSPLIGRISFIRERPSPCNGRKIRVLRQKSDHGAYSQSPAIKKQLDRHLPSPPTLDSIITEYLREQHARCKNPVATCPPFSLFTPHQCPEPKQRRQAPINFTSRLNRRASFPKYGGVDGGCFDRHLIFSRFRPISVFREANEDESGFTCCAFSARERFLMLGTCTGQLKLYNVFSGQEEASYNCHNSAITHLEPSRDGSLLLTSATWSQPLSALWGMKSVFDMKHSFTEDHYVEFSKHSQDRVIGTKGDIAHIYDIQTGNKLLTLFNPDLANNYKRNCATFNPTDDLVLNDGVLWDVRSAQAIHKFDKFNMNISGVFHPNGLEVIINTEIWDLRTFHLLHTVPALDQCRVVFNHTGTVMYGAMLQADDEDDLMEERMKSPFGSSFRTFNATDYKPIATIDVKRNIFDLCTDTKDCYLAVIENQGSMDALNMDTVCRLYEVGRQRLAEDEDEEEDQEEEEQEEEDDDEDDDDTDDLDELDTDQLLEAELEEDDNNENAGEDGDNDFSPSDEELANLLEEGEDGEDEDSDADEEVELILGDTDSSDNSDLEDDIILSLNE
WDR5: WD repeat-containing protein 5 (WDR5, Homo sapiens, UniProt P61964)
target	conditions	SYPRO Orange fluorescence
DCAF1	78.61 °C	46600 a.u.
DCAF1	59.81 °C	39800 a.u.
DCAF1	48.6 °C	14600 a.u.
WDR5	51.2 °C	16700 a.u.
DCAF1	81.61 °C	43400 a.u.
WDR5	50.6 °C	16600 a.u.
DCAF1	32 °C	9730 a.u.

Series 3 — method: DNA microarray; concentration: concentration not given; baseline: untreated cells
SMILES: COCC1CC2C(CCC3(C)C(O)CCC23)c2ccc(O)cc21 (stereo not shown)
cell line	test	conditions	log2 fold change
PANC-1	measured: KIF20A	higher dose arm	-1.88 and -1.87 and -1.86 and -1.84
PANC-1	measured: GINS1		-0.804
A549	measured: GINS1		-0.779
PANC-1	measured: IL23R		6.23
PANC-1	measured: CALR3	lower dose arm	1.38
PANC-1	measured: IL28A	lower dose arm	1.44
PANC-1	measured: ORC1L		-1.18
PANC-1	measured: IL20RA	lower dose arm	3.29
PANC-1	measured: GAPDH	lower dose arm	0.443 and 0.424 and 0.486 and 0.428 and 0.502
PANC-1	measured: CDCA8	lower dose arm	-0.736

Single results of other studies
SMILES	target or system	test	conditions	quantity	value
CCn1cnc2c(NCc3nc4cc(F)c(F)cc4[nH]3)nc(N3CCn4ncnc4C3)nc21	MDA-MB-231	degrader, western blot, measured: cyclin K	5 nM, 24 h	degradation	40.3%
CCn1cnc2c(NCc3nc4ccc(F)c(F)c4[nH]3)nc(N3CCn4ncnc4C3)nc21	Cyclin-dependent kinase 12, with cyclin K (CDK12, Homo sapiens, UniProt Q9NYV4)	inhibitor, ADP-Glo kinase		IC50	169 nM

For quick reference, copied from above (series 2):
target	conditions	SYPRO Orange fluorescence
DCAF1	48.6 °C	14600 a.u.
WDR5	51.2 °C	16700 a.u.
